# Experimental data gathered from unrelated publications.
# Parts stem from different laboratories: compare values within a part only.

# Set 1 — method: RNA Bind-n-Seq; molecule type: RNA; medium: in vitro; concentration: not given; baseline: input RNA pool; reading: higher = stronger binding
# Target: RING finger protein unkempt homolog, zinc fingers 1-6, GST-SBP tag (UNK, Homo sapiens, UniProt Q9C0B0, residues 30-357)
# Chain of UniProt Q9C0B0 (30-357, looked up): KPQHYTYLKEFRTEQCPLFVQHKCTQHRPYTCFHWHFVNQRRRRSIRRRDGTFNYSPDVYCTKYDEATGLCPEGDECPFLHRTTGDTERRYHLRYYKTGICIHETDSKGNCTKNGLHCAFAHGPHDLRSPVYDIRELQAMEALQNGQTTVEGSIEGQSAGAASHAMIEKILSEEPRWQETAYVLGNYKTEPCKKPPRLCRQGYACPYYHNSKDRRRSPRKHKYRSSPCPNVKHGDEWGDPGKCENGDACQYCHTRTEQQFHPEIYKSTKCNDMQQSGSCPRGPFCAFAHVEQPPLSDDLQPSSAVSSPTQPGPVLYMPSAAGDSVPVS
# Setting: RNA with constant flanks, human-mouse chimeric sites, ends assumed
# Shared flanks, not repeated: GGGAGUUCUACAGUCCGACGAUC … CAACAGAGGAUUGAGCAUCA
Oligonucleotide,bound/input enrichment
GAUAAGAAAAACUUGUUGGAGACCCGCUUGCAUGUCACUGGUAGAGACCUGAGGUGUCAAAUAGCUGAAACUUUCGGAUUUCAAGAAAAUUACAUCAAGAUCGUAAUAAAUAAGAAGCAG,0.466 ratio
AGAGAUAAGACAUCCAGAAAUAUGAGAGGCUCCCGGAUGAAUGGGUUUCCAAGUCCCACUCACAGCGCCCACUGUAGCUUCUACCGAACCAGAACCUUGCAGGCACUGAGUAAUGAGAAG,0.172 ratio
UACUACUAUGAUGGUGAUAUUGGAAAUUAUUAUUAUGGCCAGGGUCAUCCCAUGAAGCCUCAUAGAAUCCGGAUGACUCAUAACUUGCUGUUAAAUUAUGGUUUAUACCGAAAAAUGGAA,0.131 ratio
AAAUCGUGUGUGUCCAAUAUUGAAAGUGCUUUAUCUACACUCCAGUAUGUAAGCAGUAUAGUAGUUUCUUUAGAGAAUAGGUCAGCCAUUGUAAAGUAUAAUGCAAGCUCAGUCACUCCA,27.7 ratio
CUGUGUGUGCUGAAUAAAUGGCUUGUAAGAACUGUCCUCCAAGCUGUAACCCAUGCUUCCCUUAGAGUUGCUGCAAAAUGUUCUUCCUGAUAUUGAUUUUAUUUGUUAACUGAAGGUCUC,0.402 ratio
CUGAAAAACACAGAUAUCAAAGUUGUUGACUUUGGAAGUGCAACGUAUGACGACGAACAUCACAGUACUUUGGUGUCUACCCGGCACUACAGAGCUCCAGAGGUCAUUUUGGCUUUAGGU,0.206 ratio
UUACCCGAAAAUGAAGAUGAGCUGGAGAGCACCAACAGGCGCUACACCAAGAGGGACUGCAGCACUUUCCUCAGAACUAGUGAGACGGGCAUCGUGGAUCAGGUUAUGGUCACUCUCAAC,0.17 ratio
UUCAAAGAAAAGGGCAGUUCAUAAAUAUCAUAAGUAACUCUGGGGGAGGGAAAUUCUGUUCUUUUGUUUAAUUUUCCCCCAAAUGAAGCCAAAGUGUUUUUUAAGGAACUGAGAAAAAAU,0.331 ratio

# Set 2 — method: aptamer microarray, sandwich; molecule type: DNA with 2'F-ANA; medium: in vitro; concentration: 200 nM; with: Cy3 exosite-II aptamer, 400 nM; reading: higher = stronger binding; oligonucleotide: GGTTGGTGTGGTTGG
# Target: Prothrombin, mature alpha-thrombin (F2, Homo sapiens, UniProt P00734)
# Setting: whole 15-mer aptamer, many near background
Modification,mean fluorescence intensity
2'F-ANA at 4 6 9 10,82.2 a.u.
2'F-ANA at 2 3 4 6 7 12 13 14 15,277 a.u.
2'F-ANA at 2 3 4 5 10 13 14 15,45 a.u.
2'F-ANA at 2 3 4 5 7 13 14 15,49.4 a.u.
2'F-ANA at 1 3 5 6 7 8 10 11 12 14 15,81.9 a.u.
2'F-ANA at 2 3 8 9 11 12 15,994 a.u.
2'F-ANA at 2 3 7 8,1050 a.u.
2'F-ANA at 1 2 3 4 5 8 9 12 13 14,49 a.u.
2'F-ANA at 3 7 10 13 15,576 a.u.
2'F-ANA at 1 5 7 9 11 12 14,45.9 a.u.
2'F-ANA at 3 4 5 6 7 8 10 11 12,57.2 a.u.
2'F-ANA at 1 2 3 6 7 13 14 15,66 a.u.
2'F-ANA at 1 2 3 4 5 6 8 9 11 12 14 15,66.7 a.u.
2'F-ANA at 1 5 6 7 11 14,54.7 a.u.
2'F-ANA at 2 3 4 6 8 10 13 14 15,131 a.u.
2'F-ANA at 3 5 7 8 10 11 12 14 15,53.7 a.u.
2'F-ANA at 1 4 5 7 9 10 12 13,48 a.u.
2'F-ANA at 1 2 5 6 7 10 11 14,51.5 a.u.
2'F-ANA at 2 4 6 7 11 14 15,79.8 a.u.
2'F-ANA at 2 4 5 6 8 11 12,121 a.u.
2'F-ANA at 1 4 5 6 7 8 11 12 13 14,62.6 a.u.
2'F-ANA at 2 6 9 10 12 14,88 a.u.
2'F-ANA at 2 7 10 11 12 13 14 15,91.3 a.u.

# Set 3 — method: RNA Bind-n-Seq; molecule type: RNA; medium: in vitro; concentration: 200 nM; setting: whole 134-nt RNA, ends assumed; with: 150 mM LiCl; baseline: input library; reading: higher = stronger binding; all molecules: 7-deaza-guanosine replaces G
# Target: Fragile X messenger ribonucleoprotein 1, C-terminal low-complexity region (Fmr1, Mus musculus, UniProt P35922)
# Shared flanks, not repeated: GGGAGUUCUACAGUCCGACGAUC … UGGAAUUCUCGGGUGUCAAGG
Oligonucleotide,log2 enrichment
UCAAGUCCUGUGCUACACAUCGUAUGUACCGAAUCGGGCCCGGGCCCGGCCCGGGAAAGUAUUAUGUUACGCCGUUCGGAUCUGCACUUC,-2.27
UCCUUUCUGUCAUUUUACACCCACAGUUGAAGAUUCCUGUCUCUGGAUCCAAAUCAGAGGGCCUUCUCUACGUCCACUCAUCCAGAGGUG,1.64
AGUCCUGUGCUACACAUCGUAUGUACCGAAUCGGGGUUUGGGGAAAAAGGGGUGGGGAAAGUAUUAUGUUACGCCGUUCGGAUCUGCACU,-1
CUCAAGUCCUGUGCUACACAUCGUAUGUACCGAAUCGGGCGGGGCGGGGCGGGAAAGUAUUAUGUUACGCCGUUCGGAUCUGCACUUCCA,0.0359
AGUCCUGUGCUACACAUCGUAUGUACCGAAUCGGGUGGGAAAAAAAGGGUUUUUGGGAAAGUAUUAUGUUACGCCGUUCGGAUCUGCACU,-1.97
GUCCUGUGCUACACAUCGUAUGUACCGAAUCGGGAGGGUUUUUUUGGGUUUUUUUGGGAAAGUAUUAUGUUACGCCGUUCGGAUCUGCAC,-0.574
GUCCUGUGCUACACAUCGUAUGUACCGAAUCGGGUUUUUGGUUUUUGGGGUUUUUGGGAAAGUAUUAUGUUACGCCGUUCGGAUCUGCAC,-0.986
UGGGAGGUGGAUUUUGUUUAUUUUAUUAGCUCAUUUCCAGGGGUGGGAAUUUUUUUUUAAUAUGUGUCAUGAAUAAAGUUGUUUUUGAAA,-0.892

# Set 4 — method: RNA Bind-n-Seq; molecule type: RNA; medium: in vitro; concentration: 365 nM; baseline: no-protein control; reading: higher = stronger binding
# Target: RNA binding protein fox-1 homolog 2, RRM domain, GST-SBP tag (RBFOX2, Homo sapiens, UniProt O43251-10, residues 100-194)
# Setting: natural RNA segment, single round, ends assumed
# Shared flanks, not repeated: GGGAGUUCUACAGUCCGACGAUC … UGGAAUUCUCGGGUGCCAA
Oligonucleotide,RBNS enrichment (R)
UGGGCAGCUUCUGCCUAGGGCAGAGCCCACAAACCAGUGCGUCUGUGCAGAACGUCUGGAUGGACACCCAUCAUGCAUCAGUGCAAUAGAGUCUAGUAAGUGUCUCUAGC,0.509
AAAUGCUAUUGGCAGGGAAUAAUAAUAAAAAAAAAAGAAAAUCAUUCUGUUUCCUGCAGUGGGAACUGGCCAUGUAGUCUUAACAGUCUUUUGUACAAAUAUCUACAAAG,0.516
UUAAAGGUUCUGUGUCAGCUAUUUUCAUUGCCAAUGAAAUGUAUUCAGUAUUGUAGAUACUAAACCAGUUUUCCCACAUGAAAGGCAGGAAGAGUUUUGAUUCUGUCCUU,0.672
CUGGUUACAGUUGGAUCAAUCAGUAUAUAUCAGAUUUCUGGUGUUUCAAGCAAGAAGCGGGCGGAGUAAACGCGUGUGACCACUUAAAGCUGCUUGUUAACAUGGAAGAC,0.534
CAGUUUCAUUAUUUUGGAUGAUGAUGCAGAGACUCAUGUUAAUGAACUCGAAAAUGGUGUUGCUUCAUGUACUUUGAAAACCAAUCAGGUGUUUCCUGCGCUACUACUUG,0.404
CCAGCAUACUCCAAACUGUUUCUGAUGUGUUCCAUGAGAAAAGGAUUGUUUGCUCAAAAAGCUUGGAAAAUACUACACACUCCCUUUCUCCUUCUGGAGAUCAACCCACA,0.375
AAAAACCCUAUAUAUAUAUAUUAUAUAUAAAACAAUGUUCAUAGACAAUCUGAACUAUGUUUCUGAUGUGUGCACACUUUCCAUUUUAGUGCUAUUUUACAUCUGUUCGU,0.663
AAGAUUGUCCUGUGACUUCUGCCCAUUACCUGAGGCCUGUGGAAAUAAACCUUUAUGUACUUAAAAUUAUACAGAAAAUAGAAUAAAGUUAAUACCAAACUUGUUUAGUU,0.538

# Set 5 — method: RNAcompete; molecule type: RNA; medium: in vitro; concentration: 20 nM; setting: 7-mer, probes averaged, single round; baseline: mean of 7-mers; reading: higher = stronger binding
# Target: PABPC1L2, full length, GST fusion (mouse, UniProt A0ABA7IW68)
# Residues (chain): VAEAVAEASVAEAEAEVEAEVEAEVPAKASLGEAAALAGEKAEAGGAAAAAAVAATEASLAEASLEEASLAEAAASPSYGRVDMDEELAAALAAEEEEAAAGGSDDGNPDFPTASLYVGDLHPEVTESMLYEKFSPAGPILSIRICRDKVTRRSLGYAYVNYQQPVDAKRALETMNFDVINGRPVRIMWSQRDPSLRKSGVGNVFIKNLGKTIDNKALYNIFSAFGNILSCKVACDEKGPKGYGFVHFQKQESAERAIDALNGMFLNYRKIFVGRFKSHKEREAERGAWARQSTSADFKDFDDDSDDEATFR
Oligonucleotide,7-mer Z-score
GUGUGCC,-0.345
UUUCCGA,-0.3
ACUUAGU,-0.2
GAGCCCG,-0.208
CUGAGAA,0.229
CAACUUG,-0.142
GUCUCUC,-0.298
AGAAGCC,-0.22
AAGUAUC,0.119
GUAGCUG,-0.148
CUCAUUU,-0.267
GAGUAGA,0.075
GACACUU,-0.184
GCACCCA,-0.108
GUGGACU,0.137
CAUUGAG,-0.115
AGCGGCU,0.0116
ACUAUAA,0.468
AGGGGAC,0.358
AAGAGGC,0.622
GGAUAUU,-0.0464
CCCUCAU,-0.362
CGGCUGA,-0.0464
AAAUAAA,1.56
CGAACUA,-0.0138

# Excerpt of the above (set 2):
Modification,mean fluorescence intensity
2'F-ANA at 2 3 4 5 7 13 14 15,49.4 a.u.
2'F-ANA at 1 3 5 6 7 8 10 11 12 14 15,81.9 a.u.
2'F-ANA at 2 3 8 9 11 12 15,994 a.u.
2'F-ANA at 2 3 7 8,1050 a.u.
2'F-ANA at 1 2 3 4 5 8 9 12 13 14,49 a.u.
2'F-ANA at 3 7 10 13 15,576 a.u.
2'F-ANA at 1 5 7 9 11 12 14,45.9 a.u.
2'F-ANA at 3 4 5 6 7 8 10 11 12,57.2 a.u.
2'F-ANA at 1 2 3 6 7 13 14 15,66 a.u.
2'F-ANA at 1 2 3 4 5 6 8 9 11 12 14 15,66.7 a.u.
2'F-ANA at 1 5 6 7 11 14,54.7 a.u.
